Assay results collected from several papers.
Lines come from different studies, so protocols differ. ± marks the error that the study gave.
Cell line: HL-60

Compound	observed	method	time	notes	added	IC50 [µM]
CNC(=S)SC[C@@H]1C(=O)O[C@H]2[C@H]1CC/C(C)=C/CC[C@@]1(C)O[C@@H]21	cell growth or viability	MTT	72 h	–	–	13.4
COc1c(O)cc2oc3c(Br)c(O)c(CCC(C)C)c(O)c3c(=O)c2c1CCC(C)C	cell growth or viability	–	48 h	–	–	14.6
CSCCC(NC(C)=O)C(=O)O.[Ru+2].c1ccc(-c2cccc(-c3ccccn3)n2)nc1.c1ccc(-c2ccccn2)nc1	cell growth or viability	–	–	dark	–	> 100
CC(C)(C)c1ccc2[c](c1)[Au-]1([Cl])[c]3cc(C(C)(C)C)ccc3-c3cncc-2[n+]31	cell growth or viability	MTS	–	–	–	3.71
CCCCN(CCCC)C(=S)SC[C@@H]1C(=O)O[C@H]2[C@H]1CC/C(C)=C/CC[C@@]1(C)O[C@@H]21	cell growth or viability	MTT	72 h	–	–	10.6
COc1c(O)cc2oc3cc4c(c(O)c3c(=O)c2c1CCC(C)(C)O)CCC(C)(C)O4	cell growth or viability	–	48 h	–	–	> 40
COc1cccc2c(=O)c3c(NCCCCCCC(=O)Nc4ccccc4N)ccc([N+](=O)[O-])c3[nH]c12	cell growth or viability	MTT	72 h	–	–	1.46
COc1c(O)cc2oc3cc(O)c(CCC(C)C)c(O)c3c(=O)c2c1CCC(C)C	cell growth or viability	–	48 h	–	–	11.1
O=C(NCC1(c2nc(-c3ccccc3)cs2)CCOCC1)c1cccc(-c2noc(C(F)(F)F)n2)c1	cell growth or viability	CCK-8	5 days	–	–	> 10
C/C1=C\CC[C@@]2(C)O[C@H]2[C@H]2OC(=O)[C@@H](CSC(=S)NCCN(C)C)[C@@H]2CC1	cell growth or viability	MTT	72 h	–	–	24.7
Cc1cc(C#N)cc(C)c1Oc1cc(Nc2ccc(C#N)cn2)nc2ccncc12	–	–	48 h	–	–	> 127
CC1=C(Cn2c3ccc(Cl)c(=O)c-3nc3ccccc32)CCC(C)(C)C1	cell growth or viability	CCK-8	72 h	–	–	0.23
CCCN(CCC)C(=S)SC[C@@H]1C(=O)O[C@H]2[C@H]1CC/C(C)=C/CC[C@@]1(C)O[C@@H]21	cell growth or viability	MTT	72 h	–	–	20.7
CCN(CC)CCN1C(=O)c2ccc3c4cccc5c(NCCN)ccc(c6ccc(c2c36)C1=O)c54	cell growth or viability	SRB	72 h	–	–	7.4
CC1=C(Cn2c3ccc(Br)c(=O)c-3nc3ccccc32)CCC(C)(C)C1	cell growth or viability	CCK-8	72 h	–	–	0.27
COc1c(O)cc2oc3cc4c(c(O)c3c(=O)c2c1CC(O)C(C)(C)O)CC(O)O4 (centres unmarked)	cell growth or viability	–	48 h	–	–	> 40
[Ru+2].c1ccc(-c2cccc(-c3ccccn3)n2)nc1.c1ccc2nc(-c3ccc4ccccc4n3)ccc2c1.c1cnccn1	cell viability	–	–	–	light 22 J/cm^2	17.7 ± 0.1
Cc1cc(C#N)cc(C)c1Oc1cc(Nc2ccc(C#N)cn2)nc2cnccc12	–	–	48 h	–	–	> 127
COc1c(O)cc2oc3cc4c(c(O)c3c(=O)c2c1CC=C(C)C)CC(O)O4 (centres unmarked)	cell growth or viability	–	48 h	–	–	15
C(=C/c1ccccc1)/c1ccccc1	cell growth or viability	ATP luminescence	24 h	–	–	32

A few entries again:
Compound	observed	method	time	notes	added	IC50 [µM]
CC1=C(Cn2c3ccc(Br)c(=O)c-3nc3ccccc32)CCC(C)(C)C1	cell growth or viability	CCK-8	72 h	–	–	0.27
